Experimental data pooled from the literature.
Compare with care: the assays were run in different laboratories. Numbers after ± are the reported error.
Target: Albumin (ALB, Homo sapiens, UniProt P02768)

SMILES	test	system	conditions	quantity	value
COc1cc(-c2[o+]c3cc(O)cc(O)c3cc2O[C@@H]2O[C@H](CO)[C@@H](O)[C@H](O)[C@H]2O)cc(OC)c1O	binding, fluorescence quenching	–	pH 7, 20 °C, HSA 2 µM	Kd	85.99 ± 0.04 µM
O=C(O)C(F)(F)C(F)(F)C(F)(F)C(F)(F)C(F)(F)C(F)(F)C(F)(F)F	isothermal titration calorimetry	–	25 °C, low-affinity sites, two-site model	Kd	11.3 µM
CC(C)N(CCc1c[nH]c2cccc(OC(=O)CCCC(=O)O)c12)C(C)C.Cl	substrate, refers to: 4-hydroxytryptamine	human serum 4%	–	time to complete conversion	≤ 30 min
N#Cc1ccc(N2CCN(Cc3ccc(COc4cccc5c4CN([C@H]4CCC(=O)NC4=O)C5=O)cc3)CC2)c(F)c1	equilibrium dialysis	human serum albumin 50 mg/mL	6 h, 37 °C	fraction unbound	0.047
CCOc1ccc(-c2nc3ccc(-c4nc5ccc(N6CCN(C)CC6)cc5[nH]4)cc3[nH]2)cc1	binding, fluorescence titration	PBS	1 h	Kd	10 ± 4 µM
CC1(C)NC(=O)N(c2ccc(F)c(C(F)(F)F)c2F)C1=O	–	–	–	unbound fraction	0.422
NC(=O)C(c1ccccc1)(c1ccc(F)cc1)c1ccc(OCCF)cc1 (centres unmarked)	binding, HPAC-MS	immobilized protein column	20 µM, pH 7.4, together with: ammonium acetate/isopropanol mobile phase	retention factor k'	25
CC1(CC(F)(F)F)NC(=O)N(c2ccc(F)c(C(F)(F)F)c2)C1=O (centres unmarked)	–	–	–	unbound fraction	0.193
OC[C@H]1O[C@@H](Oc2cc3c(O)cc(O)cc3[o+]c2-c2cc(O)c(O)c(O)c2)[C@H](O)[C@@H](O)[C@@H]1O	binding, visible absorption spectroscopy	–	pH 7, together with: HSA 200 µM	Kd	1.64 ± 0.57 µM
O=C1CCC(N2Cc3cc(CNC(=O)C(F)(F)c4ccc(Cl)cc4)ccc3C2=O)C(=O)N1 (centres unmarked)	equilibrium dialysis	human serum albumin 50 mg/mL	6 h, 37 °C	fraction unbound	0.167
Fc1ccc(N2CCNCC2COc2ccc3c(c2)OCO3)cc1 (centres unmarked)	HPLC retention on immobilised albumin	human serum albumin column	–	fraction unbound	~0.1

Repeated from above:
SMILES	test	system	conditions	quantity	value
Fc1ccc(N2CCNCC2COc2ccc3c(c2)OCO3)cc1 (centres unmarked)	HPLC retention on immobilised albumin	human serum albumin column	–	fraction unbound	~0.1
